Assay results of several laboratories.
Each numbered part is a random draw from the data of one study; scales do not carry over between parts.

Sample 1 — technique: protein-binding microarray; molecule type: double-stranded DNA, one strand shown; sample: in vitro; concentration: 250 nM; setting: 60-bp whole probe; added: salmon DNA 0.4 mg/ml; baseline: random background probes; direction: higher = stronger binding; shared flanks, not repeated: GCCTAGCAC … GTCTTGATTCGCTTGACGCTGCTG
Target: Interferon regulatory factor 7, full length, phosphomimetic (IRF7, Homo sapiens, UniProt Q92985, residues 1-503, S101K/S471D/S472D/S475D/S476D/S477D/S483D/S484D/S487D)
Chain of UniProt Q92985 (whole entry, unmodified, looked up): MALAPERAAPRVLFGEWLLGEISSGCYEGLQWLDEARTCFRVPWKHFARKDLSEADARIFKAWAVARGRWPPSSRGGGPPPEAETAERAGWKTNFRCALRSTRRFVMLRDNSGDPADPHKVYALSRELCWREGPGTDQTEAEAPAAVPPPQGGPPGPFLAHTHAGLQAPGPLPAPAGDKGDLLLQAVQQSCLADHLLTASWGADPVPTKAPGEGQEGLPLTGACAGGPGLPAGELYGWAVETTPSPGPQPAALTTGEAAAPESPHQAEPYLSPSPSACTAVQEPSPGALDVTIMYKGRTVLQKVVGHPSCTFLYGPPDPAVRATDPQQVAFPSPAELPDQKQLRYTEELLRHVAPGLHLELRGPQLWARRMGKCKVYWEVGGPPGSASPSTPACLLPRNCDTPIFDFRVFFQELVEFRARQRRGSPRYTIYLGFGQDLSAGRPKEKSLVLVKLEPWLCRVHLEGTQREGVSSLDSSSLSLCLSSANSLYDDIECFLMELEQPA
Oligonucleotide	log fluorescence [z-score]
GACGGTATCGGACTGGGGAAGTGCTAG	-0.142
TCACCTTGGAAGTATGACACTGTGCTA	-0.361
GAGGATATCAGACTGGAGACGTGCTAG	-0.273
GAGGGACTGGGGTTTCGGGACGTGCTA	0.962
TTAGGTATCGGACTGTGTTAGTGCTAG	0.195

Sample 2 — technique: DNA-protein interaction ELISA; molecule type: double-stranded DNA, one strand shown; sample: in vitro, bacterial lysate; concentration: not given; setting: whole dsDNA probe, crude lysate protein; baseline: highest signal in screen; direction: higher = stronger binding
Target: Probable WRKY transcription factor 50, DNA-binding domain (WRKY50, Arabidopsis thaliana, UniProt Q8VWQ5, residues 99-173)
Construct (chain): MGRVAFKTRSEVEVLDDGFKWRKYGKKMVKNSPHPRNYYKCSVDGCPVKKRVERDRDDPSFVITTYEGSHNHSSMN
Oligonucleotide	relative absorbance
AAAAAATTTCTCCTTCTTTGTTCTTCAAAA	66.2 % of maximum
AAAAAATAGGCGTTATGGCTAACACCAAAA	11.5 % of maximum
AAAAAAGGCCTTCGCTCGTGTTTACGAAAA	11.6 % of maximum

Sample 3 — technique: RNA Bind-n-Seq; molecule type: RNA; sample: in vitro; concentration: 1 µM; setting: whole 134-nt RNA, ends assumed; added: 150 mM KCl; baseline: input library; direction: higher = stronger binding
Target: Ras GTPase-activating protein-binding protein 1, RRM domain (G3BP1, Homo sapiens, UniProt Q13283)
Chain of UniProt Q13283 (whole entry, looked up): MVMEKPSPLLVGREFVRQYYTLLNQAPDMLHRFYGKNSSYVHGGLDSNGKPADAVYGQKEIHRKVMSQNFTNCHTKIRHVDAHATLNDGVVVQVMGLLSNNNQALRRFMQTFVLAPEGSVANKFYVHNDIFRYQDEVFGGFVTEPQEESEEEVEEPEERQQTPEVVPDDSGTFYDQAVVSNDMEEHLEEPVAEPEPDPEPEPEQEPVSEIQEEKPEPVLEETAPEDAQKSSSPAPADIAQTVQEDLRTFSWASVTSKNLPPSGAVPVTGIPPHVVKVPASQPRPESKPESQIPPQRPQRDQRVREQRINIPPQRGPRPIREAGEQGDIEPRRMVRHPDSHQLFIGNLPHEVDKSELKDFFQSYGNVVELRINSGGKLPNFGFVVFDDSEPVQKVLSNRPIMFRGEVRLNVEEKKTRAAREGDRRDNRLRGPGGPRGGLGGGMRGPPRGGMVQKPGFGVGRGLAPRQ
Oligonucleotide	log2 enrichment
GGGAGUUCUACAGUCCGACGAUCUGGGAGGUGGAUUUUGUUUAUUUUUUUAGCUCAUUUCCAGGGGUGGGAAUGUUUUUUUAAUAUGUGUCAUGAAUAAAGUUGUUUUUGAAAUGGAAUUCUCGGGUGUCAAGG	2.45
GGGAGUUCUACAGUCCGACGAUCUCCUCAAGUCCUGUGCUACACAUCGUAUGUACCGAAUCGGAGGAGGAGGGGAAAGUAUUAUGUUACGCCGUUCGGAUCUGCACUUCCAGCUGGAAUUCUCGGGUGUCAAGG	-0.302
GGGAGUUCUACAGUCCGACGAUCAGUCCUGUGCUACACAUCGUAUGUACCGAAUCGGGGUUUUGGGGUUUUGGUUUUGGGGAAAGUAUUAUGUUACGCCGUUCGGAUCUGCACUGGAAUUCUCGGGUGUCAAGG	-0.0517
GGGAGUUCUACAGUCCGACGAUCUAGGAAAACCGUCUUCAGAUACAGUCCCUAAGCCCAAGAGAGCCCCAAAACAGAAGAAAGUAGUAGAGGCUGUAAACUCUGACUCGGAUUUGGAAUUCUCGGGUGUCAAGG	-0.0464

Other studies, line by line
Molecule	target	test	test system	setting	how to read	measurement	result
PhoQ, residues 284 288 289 292 302 303 SLANIV	PhoP, residues 12 14 15 18 19 NMSSL (Escherichia coli, UniProt P23836)	Sort-seq, refers to: YFP reporter	E. coli	PhoQ-PhoP variant library, added: 10 µM Mg2+	baseline: high Mg2+ state, higher = stronger signaling	fold induction	2.89

Repeated from above (sample 2):
Oligonucleotide	relative absorbance
AAAAAAGGCCTTCGCTCGTGTTTACGAAAA	11.6 % of maximum
